# Published values gathered from unrelated publications.
# Protocols differ between the studies behind these lines. ± marks the error that the study gave.
# Cell line: HCT-116
Compound,test,setting,scale,endpoint,value
C=C(C)C[C@H](OC)[C@H](O)C(=O)N[C@@H](OC)[C@@H]1C[C@H](O)C(C)(C)[C@@H](C[C@H](O)[C@@H](C)[C@H]2Cc3c(C)c(O)cc(O)c3C(=O)O2)O1,cell growth or viability,,,IC50,0.003 µM
CC/C=C\C/C=C\C/C=C\C/C=C\C/C=C\C/C=C\CCC(=O)Nc1ccn(C2OC(CO)C(O)C2(F)F)c(=O)n1 (stereo not shown),NCI60 screen,,,CC50,44.4 µM
COc1cc(C)c(OC)c(OC)c1OC,cell growth or viability,72 h,,GI50,> 250 µM
COC1CC(=O)N(C)C=CCCCC(=O)N(C)C(C(C)C)C(=O)N(C)C(CC(C)C)C(=O)OC(C(C)C)CC(C)C1 (stereo not shown),"RNA sequencing, measured: insulin secretion signalling pathway","20 µM, 12 h",direction not given,pathway activation z-score,2.33
N=C(N)NCCC[C@H](NC(=O)[C@H](Cc1c(F)c(F)c(F)c(F)c1F)NC(=O)[C@H](CCCNC(=N)N)NC(=O)[C@@H](CCCNC(=N)N)NC(=O)CCCCCNC(=O)CCCc1ccc(N(CCCl)CCCl)cc1)C(=O)N[C@@H]1CSCc2ccccc2CSC[C@@H](C(=O)N[C@H](CCCNC(=N)N)C(=O)N[C@@H](CC2CCCCC2)C(=O)N[C@@H](CCCNC(=N)N)C(=O)N2Cc3ccccc3C2C(N)=O)NC(=O)[C@H](Cc2cccc3ccccc23)NC(=O)[C@H](Cc2ccc(O)cc2)NC1=O (stereo partly shown),,,,EC50,7.5 ± 1.1 µM
CC1=CCC23OC2(C)CCC2C(C[N+](C)(C)C)C(=O)OC2C13.[I-] (stereo not shown),"cell growth or viability, SRB",8.3 µM,,inhibition,81.8%
C[P+](c1ccccc1)(c1ccccc1)c1ccccc1,cell growth or viability,72 h,,GI50,13.7 µM
OC[C@H]1[C@@H](O)[C@@H](O)CN1Cc1ccc(I)cc1,"cell growth or viability, MTS",72 h,,IC50,> 200 µM
CC(C)C[C@H](NC(=O)[C@H](CC(C)C)NC(=O)[C@H](CC(=O)O)NC(=O)[C@H](CCCCN)NC(=O)[C@H](Cc1ccccc1)NC(=O)CN)C(=O)N[C@@H](CCCCN)C(=O)N[C@H]1CSCc2ccc(cc2)CSC[C@@H](C(=O)N[C@@H](CC(C)C)C(=O)N[C@H](C(=O)N[C@@H](CCCCN)C(=O)N[C@H](C(=O)N[C@H](C(=O)N[C@@H](CC(C)C)C(=O)N[C@@H](Cc2ccccc2)C(N)=O)C(C)C)[C@@H](C)O)C(C)C)NC(=O)[C@H](CCCCN)NC(=O)[C@H](C)NC(=O)[C@H](C)NC1=O,"cell growth or viability, CCK-8",,,IC50,10.8 µM
CC(C)=CCC/C(C)=C/C[P+](c1ccccc1)(c1ccccc1)c1ccccc1,"cell growth or viability, MTT",72 h,,GI50,0.079 µM
CC(C)C[C@H](NC(=O)[C@H](C)NC(=O)[C@H](CCCCN)NC(=O)[C@H](C)NC(=O)[C@H](C)NC(=O)[C@@H]1CSCc2ccccc2CSC[C@H](NC(=O)[C@H](CCCCN)NC(=O)[C@H](Cc2ccccc2)NC(=O)CN)C(=O)N[C@@H](CC(C)C)C(=O)N[C@@H](CC(C)C)C(=O)N[C@@H](CCCCN)C(=O)N1)C(=O)N[C@H](C(=O)N[C@@H](CCCCN)C(=O)N[C@H](C(=O)N[C@H](C(=O)N[C@@H](CC(C)C)C(=O)N[C@@H](Cc1ccccc1)C(N)=O)C(C)C)[C@@H](C)O)C(C)C,"cell growth or viability, CCK-8",,,IC50,15.7 µM
O=C(CN1C(=O)S/C(=C\c2ccccc2)C1=O)Nc1ccc(C(=O)Nc2ccc(F)cc2)cc1,MTT,,reference: IC50 Vero over IC50 HCT-116,selectivity index,22.7
CCCc1cc(OC)c(OC)c(OC)c1OC,"cell growth or viability, MTT",72 h,,GI50,> 250 µM

# Some of these lines once more:
Compound,test,setting,scale,endpoint,value
C[P+](c1ccccc1)(c1ccccc1)c1ccccc1,cell growth or viability,72 h,,GI50,13.7 µM
